Measured values from different studies.
Compare with care: the assays were run in different laboratories. ± marks the error that the study gave.
nadD: Probable nicotinate-nucleotide adenylyltransferase (nadD, Mycobacterium tuberculosis, UniProt P9WJJ5)
UniProt P9WJJ5, sequence (whole entry, looked up): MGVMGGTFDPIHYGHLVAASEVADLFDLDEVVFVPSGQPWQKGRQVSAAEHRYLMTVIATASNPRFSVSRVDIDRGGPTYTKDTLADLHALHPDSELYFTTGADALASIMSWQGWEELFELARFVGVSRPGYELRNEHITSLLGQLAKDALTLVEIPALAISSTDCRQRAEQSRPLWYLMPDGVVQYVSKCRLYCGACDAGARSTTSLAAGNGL
GP1 NS2B-NS3 protease: Genome polyprotein, NS2B-NS3 protease (GP1, West Nile virus, UniProt Q9Q6P4)
mtnN: 5'-methylthioadenosine/S-adenosylhomocysteine nucleosidase (mtnN, Salmonella choleraesuis, UniProt Q57T48)
UniProt Q57T48, sequence (whole entry, looked up): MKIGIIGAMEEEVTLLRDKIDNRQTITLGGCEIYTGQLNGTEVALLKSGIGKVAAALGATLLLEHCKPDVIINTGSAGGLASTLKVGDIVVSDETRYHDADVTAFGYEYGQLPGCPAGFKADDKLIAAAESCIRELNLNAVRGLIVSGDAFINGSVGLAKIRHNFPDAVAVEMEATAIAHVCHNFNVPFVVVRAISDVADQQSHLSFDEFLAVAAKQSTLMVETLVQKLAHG
UniProt Q04206, sequence (whole entry, looked up): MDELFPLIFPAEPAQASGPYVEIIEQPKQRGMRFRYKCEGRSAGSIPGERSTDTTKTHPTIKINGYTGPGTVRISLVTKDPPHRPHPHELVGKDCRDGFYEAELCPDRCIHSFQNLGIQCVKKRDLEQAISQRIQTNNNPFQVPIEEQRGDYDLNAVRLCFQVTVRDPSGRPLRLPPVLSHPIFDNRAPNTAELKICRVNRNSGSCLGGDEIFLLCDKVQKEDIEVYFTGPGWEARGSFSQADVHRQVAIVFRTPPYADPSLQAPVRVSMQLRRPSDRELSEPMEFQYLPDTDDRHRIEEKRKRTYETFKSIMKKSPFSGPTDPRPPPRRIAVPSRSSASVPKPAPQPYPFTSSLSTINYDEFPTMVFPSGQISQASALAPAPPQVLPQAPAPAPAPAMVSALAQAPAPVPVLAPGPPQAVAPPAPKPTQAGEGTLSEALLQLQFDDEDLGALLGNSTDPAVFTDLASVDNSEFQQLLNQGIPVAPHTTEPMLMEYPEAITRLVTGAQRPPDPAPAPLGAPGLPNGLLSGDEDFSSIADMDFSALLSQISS
UniProt P31645, sequence (whole entry, unmodified, looked up): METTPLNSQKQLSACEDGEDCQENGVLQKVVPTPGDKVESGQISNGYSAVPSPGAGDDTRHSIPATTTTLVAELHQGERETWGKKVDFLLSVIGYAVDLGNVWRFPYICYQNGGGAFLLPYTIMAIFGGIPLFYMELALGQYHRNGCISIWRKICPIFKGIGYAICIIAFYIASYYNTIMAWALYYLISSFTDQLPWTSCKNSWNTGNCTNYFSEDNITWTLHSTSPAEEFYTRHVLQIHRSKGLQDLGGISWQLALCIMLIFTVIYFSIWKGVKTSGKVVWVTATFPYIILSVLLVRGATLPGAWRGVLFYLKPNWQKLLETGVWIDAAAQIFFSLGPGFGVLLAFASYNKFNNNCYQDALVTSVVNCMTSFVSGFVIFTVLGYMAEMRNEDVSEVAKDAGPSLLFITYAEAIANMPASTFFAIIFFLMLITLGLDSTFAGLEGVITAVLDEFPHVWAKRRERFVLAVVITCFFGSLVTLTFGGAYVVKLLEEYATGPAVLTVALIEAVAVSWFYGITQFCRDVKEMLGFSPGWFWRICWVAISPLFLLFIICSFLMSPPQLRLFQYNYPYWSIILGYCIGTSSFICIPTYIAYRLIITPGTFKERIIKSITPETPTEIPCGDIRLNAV
UniProt P41143, sequence (whole entry, looked up): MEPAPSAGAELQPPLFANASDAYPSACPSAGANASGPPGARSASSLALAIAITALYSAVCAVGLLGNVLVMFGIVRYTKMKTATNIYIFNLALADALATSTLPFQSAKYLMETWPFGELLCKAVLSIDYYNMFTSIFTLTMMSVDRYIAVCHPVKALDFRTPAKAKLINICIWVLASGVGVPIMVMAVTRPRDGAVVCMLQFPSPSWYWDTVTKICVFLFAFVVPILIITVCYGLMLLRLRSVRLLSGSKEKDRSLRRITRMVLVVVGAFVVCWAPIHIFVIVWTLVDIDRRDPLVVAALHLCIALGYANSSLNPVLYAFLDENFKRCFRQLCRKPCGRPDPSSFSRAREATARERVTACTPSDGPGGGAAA

Molecule	tested on	test	system	setting	scale	quantity	value
CC[C@H](C)[C@H](NC(=O)[C@H](Cc1ccc(O)cc1)NC(=O)[C@@H](NC(=O)[C@@H]1CCCN1C(=O)[C@H](CCCNC(=N)N)NC(=O)[C@H](CC(N)=O)NC(=O)[C@H](CC(N)=O)NC(=O)[C@H](CCCN)N=C(N(C)C)N(C)C)C(C)C)C(=O)N1CCC[C@H]1C(=O)N[C@@H](CCCNC(=N)N)C(=O)N1CCC[C@H]1C(=O)N[C@@H](CCCNC(=N)N)C(=O)N1CCC[C@H]1C(=O)N1CCC[C@H]1C(=O)N[C@@H](Cc1c[nH]cn1)C(=O)N1CCC[C@H]1C(=O)N[C@@H](CCCNC(=N)N)C(=O)N[C@@H](CC(C)C)C(=O)O	–	binding, fluorescence polarization	70S ribosome, Klebsiella pneumoniae ATCC 10031	90 min, pH 7.6, 28 °C, with: fluorescein-labelled peptide	–	Kd	155 ± 18 nM
CCn1cc(C(=O)Nc2nccs2)c(=O)c2cc(F)c(N3CCN(C(=O)c4ccco4)CC3)cc21	nadD	enzyme activity, inhibitor, released pyrophosphate	–	–	–	IC50	> 100 µM
NC(=O)CBr	HepG2 ARE-bla	ARE reporter gene	–	16 h	reference: 23 µM beta-naphthoflavone	EC50	1.92 µM
COC(=O)[C@@]1(O)C[C@H]2O[C@]1(C)n1c3ccccc3c3c4c(c5c6ccccc6n2c5c31)C(=O)NC4	HeLa expressing ODD-Luc	ODD-Luc degradation, inhibitor, cycloheximide chase luciferase	–	–	–	IC50	7.2 ± 1.4 µM
C=C[C@H]1CN2CC[C@H]1C[C@H]2[C@H](O)c1ccnc2ccccc12	Sodium-dependent serotonin transporter (SLC6A4, Homo sapiens, UniProt P31645, I172M)	transporter uptake, inhibitor, radiometric	–	–	–	Ki	36 µM
Clc1ccc(-c2nn3c(COc4cccc(OCc5nnc6sc(-c7ccc(Cl)cc7)nn56)c4)nnc3s2)cc1	GP1 NS2B-NS3 protease	enzyme activity, inhibitor	–	pH 8.0, with: 20 µM Pyr-RTKR-AMC	–	IC50	1.26 µM
glucagon	–	binding, SPR (Biacore)	immobilized peptide	rabbit mAb mixture analyte	–	Kd	0.07 nM
c1ccc(CCN2CCCCC2)cc1	GABA-A chloride channel, rat	binding	rat cerebral cortex	with: [3H]TBOB 20 nM	–	Ki	> 10 µM
O=c1[nH]c2ccccc2n1C1CCN(Cc2ccc(-c3nc4cc5[nH]cnc5cc4nc3-c3ccccc3)cc2)CC1	HeLa expressing ODD-Luc	ODD-Luc degradation, inhibitor, cycloheximide chase luciferase	–	–	–	IC50	3.6 ± 0.5 µM
Fc1cc(C2=Nn3c(COc4ccc(Cl)cc4Cl)nnc3S/C2=C\c2ccc(-c3ccc(Cl)cc3)o2)c(Cl)cc1Cl	GP1 NS2B-NS3 protease	enzyme activity, inhibitor	–	pH 8.0, with: 20 µM Pyr-RTKR-AMC	–	IC50	3.46 µM
Nc1ncnc2c(CN3CC(O)C(CSCCO)C3)c[nH]c12 (centres unmarked)	mtnN	enzyme activity, slow-onset inhibitor	Salmonella enterica	–	–	Ki	1.1e-05 ± 2.2e-06 µM
Cc1cc(O)cc(C)c1C[C@H](N)C(=O)NCCN(C)CCN1CCc2ccccc2C1	Delta-type opioid receptor (OPRD1, Homo sapiens, UniProt P41143)	GTPγS binding, agonist, radiometric	–	–	–	EC50	1.63 µM
CN[C@H](CC(C)C)C(=O)N[C@H]1C(=O)N[C@@H](CC(N)=O)C(=O)N[C@H]2C(=O)N[C@H]3C(=O)N[C@H](C(=O)N[C@H](C(=O)O)c4cc(O)cc(O)c4-c4cc3ccc4O)[C@H](O)c3ccc(c(Cl)c3)Oc3cc2cc(c3O[C@@H]2O[C@H](CO)[C@@H](O)[C@H](O)[C@H]2O[C@H]2C[C@](C)(N)[C@H](O)[C@H](C)O2)Oc2ccc(cc2Cl)[C@H]1O	–	binding, cantilever surface stress	D-Lac peptide surface	pH 7.4, 25 °C, 0.002% PS80	–	Kd	800000 ± 310000 nM
Nc1ncnc2n[nH]c(Nc3ccc(F)cc3)c12	HEK293T	PGC-1α/ERRα reporter gene, agonist, qHTS luciferase	–	–	–	EC50	23.7 µM
C=C[C@@]1(C)COC(=O)[C@]12OC(c1ccccc1)=CC2=O	HIV-1	viral replication, inhibitor, luciferase reporter	MT2 and TZM-bl cells	–	–	IC50	29 µM
CC[C@H](C)[C@H](NC(=O)[C@@H](CCCNC(=N)N)NC(=O)[C@H](CCCNC(=N)N)NC(=O)[C@@H]1CCCN1C(=O)[C@@H]1CCCN1C(=O)[C@H](CCCNC(=N)N)NC(=O)[C@@H]1CCCN1C(=O)[C@H](CCCNC(=N)N)NC(=O)[C@@H]1CCCN1C(=O)[C@H](CC(C)C)NC(=O)[C@H](Cc1ccc(O)cc1)NC(=O)[C@@H]1CCCN1C(=O)[C@@H]1CCCN1C(=O)[C@H](CCCCN)NC(=O)[C@H](CC(=O)O)NC(=O)[C@@H](N)C(C)C)C(=O)N[C@@H](Cc1ccc(O)cc1)C(=O)N[C@@H](CC(N)=O)C(=O)N[C@H](CCCNC(=N)N)C(N)=O	–	binding, fluorescence polarization	70S ribosome, Pseudomonas aeruginosa ATCC 27853	90 min, pH 7.6, 28 °C, with: fluorescein-labelled peptide	–	Kd	36 ± 2 nM
CCn1cc(C(=O)NC2CC2)c(=O)c2cc(F)c(N3CCN(C(=O)c4ccco4)CC3)cc21	nadD	enzyme activity, inhibitor, released pyrophosphate	–	–	–	IC50	41.6 ± 7.9 µM
CC(=O)C(N=Nc1ccc(S(=O)(=O)Nc2ccccn2)cc1)C(=O)Nc1ccc(Cl)cc1 (centres unmarked)	GP1 NS2B-NS3 protease	enzyme activity, inhibitor	–	pH 8.0, with: 20 µM Pyr-RTKR-AMC	–	IC50	6.25 µM
Nc1ncnc2c(CN3CC(O)C(CSCCCCO)C3)c[nH]c12 (centres unmarked)	mtnN	enzyme activity, slow-onset inhibitor	Salmonella enterica	–	–	Ki	1.48e-05 ± 2.7e-06 µM
CCn1cc(C(=O)NCc2ccccn2)c(=O)c2cc(F)c(N3CCN(C(=O)c4ccco4)CC3)cc21	nadD	enzyme activity, inhibitor, released pyrophosphate	–	–	–	IC50	> 100 µM
NC(=O)CCl	HepG2 ARE-bla	ARE reporter gene	–	16 h	reference: 23 µM beta-naphthoflavone	EC50	9.47 µM
C=C(C)[C@@H]1CC[C@]2(C(=O)O)CC[C@]3(C)[C@H](CC[C@@H]4[C@@]5(C)CC[C@H](O)C(C)(C)[C@@H]5CC[C@]43C)[C@@H]12	Transcription factor p65 (RELA, Homo sapiens, UniProt Q04206)	NF-κB activity, inhibitor, ELISA	HeLa	3 h	–	IC50	14.3 µM
CS(=O)(=O)CCNCc1ccc(-c2ccc3ncnc(Nc4ccc(OCc5cccc(F)c5)c(Cl)c4)c3c2)o1	–	topotecan renal clearance	human	–	–	Ki	4 µM

A few entries again:
Molecule	tested on	test	system	setting	scale	quantity	value
CCn1cc(C(=O)Nc2nccs2)c(=O)c2cc(F)c(N3CCN(C(=O)c4ccco4)CC3)cc21	nadD	enzyme activity, inhibitor, released pyrophosphate	–	–	–	IC50	> 100 µM
NC(=O)CBr	HepG2 ARE-bla	ARE reporter gene	–	16 h	reference: 23 µM beta-naphthoflavone	EC50	1.92 µM
COC(=O)[C@@]1(O)C[C@H]2O[C@]1(C)n1c3ccccc3c3c4c(c5c6ccccc6n2c5c31)C(=O)NC4	HeLa expressing ODD-Luc	ODD-Luc degradation, inhibitor, cycloheximide chase luciferase	–	–	–	IC50	7.2 ± 1.4 µM
C=C[C@H]1CN2CC[C@H]1C[C@H]2[C@H](O)c1ccnc2ccccc12	Sodium-dependent serotonin transporter (SLC6A4, Homo sapiens, UniProt P31645, I172M)	transporter uptake, inhibitor, radiometric	–	–	–	Ki	36 µM
